Results of several laboratories.
Several values in a cell are separate wells, animals, samples, runs or records. ± gives the spread as reported.

For `CCOCc1nc(O)c(-c2nnc(Cc3ccc(Cl)cn3)o2)c(O)c1-c1c(OC)cccc1OC`, “cardiac output change” read 38% (renal hypertensive rat; sc infusion, 0.192 mg/kg/day, repeat dosing; baseline: vehicle).
`O=C(c1ccc(C#Cc2cccc(F)c2)nc1)N1CCC(O)CC1`: “population spike inter-event interval” 86.5 ± 11.7% (rat hippocampal CA3 slices; 10 µM, 10 min, spontaneous epileptiform activity; baseline: baseline).
For `C[C@H]1O[C@@H](O[C@H]2CC[C@@]3(C)[C@@H](CC[C@]4(C)[C@@H]3C=C[C@]35OC[C@@]6(CCC(C)(C)C[C@H]63)[C@@H](O)C[C@]54C)[C@]2(C)CO)[C@H](O)[C@@H](O[C@@H]2O[C@H](CO)[C@@H](O)[C@H](O)[C@H]2O)[C@H]1O`, the mRNA level was 2.04 and 3.14 and 2.14 and 3.31 (measured: PPAR-α; chronic-plus-binge ethanol-fed mice, AAV8-TBG-Null, liver; dose not given, high dose, unit not given; baseline: AAV8-TBG-Null ethanol group).
Under “log2 fold change”, `CC[C@H](C)[C@@H]1NC(=O)[C@@H]2CCCN2C(=O)[C@H](CC(C)C)NC(=O)[C@H](CC(C)C)NC(=O)CNC(=O)[C@@H](NC(=O)[C@@H](NC(=O)[C@H](CC(=O)O)NC(=O)CNC(=O)[C@@H](NC(=O)[C@H](C)NC(=O)CNC(=O)[C@H](CCCCN)NC(=O)[C@H](CC(C)C)NC(=O)[C@H](CC(C)C)NC(=O)[C@H](CCCCN)NC(=O)CNC(=O)[C@@H](NC(=O)[C@@H](N)CC(C)C)C(C)C)C(C)C)C(C)C)CSSC[C@@H](C(=O)O)NC1=O` is recorded as -2.08 (RNA-seq, measured: Emilin2; mouse, traumatic brain injury model, frontal cortex and hippocampus; dose not given; baseline: TBI alone).
`CN1CCN(S(=O)(=O)c2cc([N+](=O)[O-])ccc2N(CCOS(C)(=O)=O)CCOS(C)(=O)=O)CC1` gave an event-free survival of > 156 days (NSG mice, sample CJ PDX; intraperitoneal, 25 mg/kg weekly x3).
`COc1ncc(-c2nc3c(n2C(C)C)[C@H](c2ccc(Cl)cc2)N(c2cc(Cl)cn(C)c2=O)C3=O)c(OC)n1`: “best overall response” 33.3% (antileukemic activity, measured: treatment failure, resistant disease; human, acute myeloid leukaemia; 250 mg, high-dose, RDE).
For `C[C@]1(CO)Cc2ncn(-c3ccc(C#N)c(Cl)c3)c2C(=O)O1`, “urinary sodium excretion 0-24 h” read 110 mmol (Japanese subjects; 3 mg single dose).
For `CC(N)C(=O)OC(C)(C)Cc1ccc(Cl)cc1` (centres unmarked), the IC50 was 7.94 µM (Plasmodium falciparum; Dd2).
`Cc1cn(-c2cc(NC(=O)c3ccc(C)c(Nc4nccc(-c5cccnc5)n4)c3)cc(C(F)(F)F)c2)cn1` — result for “ADAS-Cog change difference”: 0.67 (human; dose not given, between 12 and 6 months, unit not given; baseline: placebo).
`C[N+](C)(C)CCCCCNCC12CC3CC(CC(C3)C1)C2` gave an IC50 of 5.01 µM (Plasmodium falciparum; W2).
`Cc1nc(Nc2ccc(CC(=O)O)cc2)nc(Nc2ccc(F)c(C(F)(F)F)c2)c1C`: triglyceride content “no effect” (mice, chronic ethanol plus binge, liver; intraperitoneal, 0.3 mg/kg daily, ethanol diet 4 weeks, dosed last two; baseline: vehicle).

Excerpt of the above:
`CN1CCN(S(=O)(=O)c2cc([N+](=O)[O-])ccc2N(CCOS(C)(=O)=O)CCOS(C)(=O)=O)CC1` gave an event-free survival of > 156 days (NSG mice, sample CJ PDX; intraperitoneal, 25 mg/kg weekly x3).
